Measurements from different studies.
Lines come from different studies, so protocols differ. Numbers after ± are the reported error. In brackets after ≈: the same amount, converted by molar mass.

| SMILES | tested on | assay | test system | setting | measurement | result |
| --- | --- | --- | --- | --- | --- | --- |
| COC(=O)[C@@H]1C(c2nc3cncnc3[nH]2)=Cc2cc3c(cc2[C@H]1c1cc(OC)c(OC)c(OC)c1)OCO3 | mouse splenocytes uninfected | Alamar Blue |  | 48 h | CC50 | 53.3 ± 3.5 µM |
| CC(C)n1nnc(-c2cc(O)cc(Nc3ncnn4ccc(CN5CCC(N)CC5)c34)c2)n1 |  |  | mouse | subcutaneous, 10 mg/kg, 90 min | brain to plasma ratio | 0.03 |
| Cc1cc(SCc2sc(-c3cccc(C#N)c3)nc2C)ccc1OCC(=O)O | HEK293T |  |  | 18 h | CC50 | > 80 µM |
| COc1ccc(CC(=O)OCc2ccc(-n3cccn3)cc2)cc1F |  |  | mouse plasma |  | half-life | > 2.5 h |
| CCCSc1nc(N[C@@H]2C[C@H]2c2ccc(F)c(F)c2)c2nnn([C@@H]3C[C@H](O)[C@@H](O)[C@H]3O)c2n1 |  |  | rat, male, plasma | oral, 20 mg/kg/day ticagrelor, week 52 | AUC | 20 µM·h |
| Cc1nc(-c2ccc(C(F)(F)F)c(F)c2)sc1CSc1ccc(OCC(=O)O)cc1 | HEK293T |  |  | 18 h | CC50 | > 100 µM |
| Nc1ncc(-c2ccc3ncnc(N4CCc5cc(F)c(Cl)cc54)c3c2)cn1 |  |  | CD1 mouse, brain | intravenous, 5 mg/kg | Cmax | 5140 ng/mL |
| COC(=O)[C@@H]1C(c2nc3cc(C(F)(F)F)ccc3s2)=Cc2cc3c(cc2[C@H]1c1cc(OC)c(OC)c(OC)c1)OCO3 | mouse splenocytes uninfected | Alamar Blue |  | 48 h | CC50 | > 100 µM |
| Cc1cc(SCc2sc(-c3ccc4nonc4c3)nc2C)ccc1OCC(=O)O | HEK293T |  |  | 18 h | CC50 | > 100 µM |
| COc1cc([C@@H]2c3cc4c(cc3C=C(C=O)[C@H]2C(=O)OCCCCCCBr)OCO4)cc(OC)c1OC | mouse splenocytes uninfected | Alamar Blue |  | 48 h | CC50 | 46.8 ± 7 µM |
| Cc1n[nH]c(C)c1CCOC(=O)c1cccc2c1oc(=O)n2C |  |  | FaSSIF |  | solubility | 124 µM (≈ 39.1 µg/mL) |
| Cc1cc(SCc2sc(-c3cccc4[nH]ncc34)nc2C)ccc1OCC(=O)O | HEK293T |  |  | 18 h | CC50 | > 100 µM |
| COC(=O)[C@@H]1C(c2nc3ccccc3o2)=Cc2cc3c(cc2[C@H]1c1cc(OC)c(OC)c(OC)c1)OCO3 | mouse splenocytes uninfected | Alamar Blue |  | 48 h | CC50 | > 100 µM |
| Cc1cc(SCc2sc(-c3ccc4[nH]ncc4c3)nc2C)ccc1OCC(=O)O | HEK293T |  |  | 18 h | CC50 | not toxic |
| COC(=O)[C@@H]1C(c2nc3ccccc3s2)=Cc2cc3c(cc2[C@H]1c1cc(OC)c(OC)c(OC)c1)OCO3 | HepG2 | Alamar Blue |  | 48 h | CC50 | 47.5 ± 0.3 µM |

Some of these lines once more:
| SMILES | tested on | assay | test system | setting | measurement | result |
| --- | --- | --- | --- | --- | --- | --- |
| Cc1cc(SCc2sc(-c3ccc4nonc4c3)nc2C)ccc1OCC(=O)O | HEK293T |  |  | 18 h | CC50 | > 100 µM |
| COc1cc([C@@H]2c3cc4c(cc3C=C(C=O)[C@H]2C(=O)OCCCCCCBr)OCO4)cc(OC)c1OC | mouse splenocytes uninfected | Alamar Blue |  | 48 h | CC50 | 46.8 ± 7 µM |
